Experimental data pooled from the literature.
Each line is one published result; not all experiments were run side by side. Values joined by “and” are separate records of one study, mostly repeats; a detail may differ.
EPHB3: Ephrin type-B receptor 3 (EPHB3, Homo sapiens, UniProt P54753)
TDP1: Tyrosyl-DNA phosphodiesterase 1 (TDP1, Homo sapiens, UniProt Q9NUW8)
UniProt Q9NUW8, sequence (whole entry, looked up): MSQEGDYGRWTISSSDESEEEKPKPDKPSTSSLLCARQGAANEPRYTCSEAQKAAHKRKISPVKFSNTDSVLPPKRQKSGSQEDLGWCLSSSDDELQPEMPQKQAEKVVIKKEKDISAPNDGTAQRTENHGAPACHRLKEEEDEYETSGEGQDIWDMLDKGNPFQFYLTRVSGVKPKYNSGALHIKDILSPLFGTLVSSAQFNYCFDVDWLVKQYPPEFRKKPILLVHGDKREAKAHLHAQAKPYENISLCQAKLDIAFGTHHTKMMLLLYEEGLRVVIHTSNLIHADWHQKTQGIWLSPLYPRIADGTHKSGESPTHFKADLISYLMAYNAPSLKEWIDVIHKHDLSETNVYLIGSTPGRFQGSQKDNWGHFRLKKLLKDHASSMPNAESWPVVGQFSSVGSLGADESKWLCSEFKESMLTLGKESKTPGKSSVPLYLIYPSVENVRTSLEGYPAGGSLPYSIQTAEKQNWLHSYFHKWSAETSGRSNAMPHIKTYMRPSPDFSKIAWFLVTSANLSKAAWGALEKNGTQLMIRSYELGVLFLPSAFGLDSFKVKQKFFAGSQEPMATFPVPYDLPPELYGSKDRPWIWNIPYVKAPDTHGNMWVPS

| SMILES | target | test | conditions | how to read | endpoint | value |
| --- | --- | --- | --- | --- | --- | --- |
| COc1ccc(NC(=O)Nc2ccc3c(c2)C(=O)N(C(C)CO)CC(C)C(CN(C)Cc2ccc4c(c2)OCO4)O3)cc1 (centres unmarked) | EPHB3 | kinase activity, KinaseProfiler | 0.03 µM, species human | relative to: control | remaining activity | 90% |
| CCN1CCN(Cc2ccc(C(=O)Nc3ccc(C)c(NCc4cnc5[nH]ccc5c4OC)c3)cc2C(F)(F)F)CC1 | EPHB3 | binding, competition with immobilised ligand | 1 µM | – | remaining binding | 19% |
| Cc1ccc(C)c(-c2ccc3nc(NC(=O)C4CCCCC4)nn3c2)c1 | EPHB3 | enzyme activity, Dundee kinase panel | 10 µM | – | remaining activity | 82% |
| O=C(Cc1ccc(OCc2ccccc2)cc1)NC1(C(=O)O)CCN(C(=O)c2ccc(-c3cccc(Cl)c3)cc2)CC1 | EPHB3 | enzyme activity, inhibitor | 10 µM | – | activity vs control | 102% |
| COc1cc(Nc2nccc(-c3cnn4nc(OC)ccc34)n2)cc(C(F)(F)F)c1 | EPHB3 | binding, competition with immobilised ligand | 1 µM | – | remaining binding | 98% |
| O=C=[N][Ru-4]123([n]4c5ccc(O)cc5c5c6c(c7cc(F)c[n+]1c7c54)C(=O)NC6=O)[S+]1CC[S+]2CC[S+]3CC1 (centres unmarked) | EPHB3 | enzyme activity | 100 nM, human enzyme, added: 10 µM ATP | relative to: untreated | remaining activity | 109% |
| Cc1cccc(-c2ccc3nc(NC(=O)C4CCOCC4)nn3c2)c1 | EPHB3 | enzyme activity, Dundee kinase panel | 10 µM | – | remaining activity | 78% |
| C=CC(=O)N1CCc2ccc(-n3c(=O)ccc4cnc5ccc(-c6cnn(C)c6)cc5c43)cc21 | EPHB3 | KINOMEscan | 1 µM | relative to: DMSO control | remaining binding | 100% |
| COc1c(OCCCN2CCOCC2)ccc2c1N=C(NC(=O)c1cnc(N)nc1)N1CCN=C21 | EPHB3 | kinase activity, inhibitor | 1 µM | relative to: untreated control | remaining activity | 96% |
| O=C(O)c1ccc(Nc2c(-c3ccc(CON=Cc4cccc5cccc(C(=O)O)c45)cc3)nc3cc(-c4ccccc4)ccn23)cc1 | TDP1 | enzyme activity, inhibitor | 100 µM, unpurified compound | – | inhibition | 92.8% |
| COCC12C(=O)NC3C4(C(OC)CC1O)C1CC5(O)C(OC)C(O)C(OC(C)=O)(C1C5OC(=O)c1ccccc1)C3(O)C(OC)C24 (centres unmarked) | EPHB3 | kinase activity, inhibitor, ProQinase kinase profiling | 25 µM | relative to: control | remaining activity | 111% and 116% |
| NC(=O)C[C@H]1CCc2sc3ncnc(O[C@H]4CC[C@H](N5CCOCC5)CC4)c3c21 | EPHB3 | enzyme activity, inhibitor | 10 µM | – | inhibition | 6% |
| CC(CC=NOCc1ccc(-c2nc3cc(-c4ccccc4)ccn3c2Nc2ccc(C(=O)O)cc2)cc1)c1cn(C)c2ccccc12 (centres unmarked) | TDP1 | enzyme activity, inhibitor | 100 µM, unpurified compound | – | inhibition | 71.7% |
| C=CC(=O)N1Cc2nc(-c3cc(-c4cc(Cl)cnc4Cl)c(F)cc3F)n(-c3ccncn3)c2C1 | EPHB3 | cell-free assay | 1 µM | – | inhibition | 3.6% |
| CN1CC[C@@H](COc2cnc(C#N)cc2-c2ccn3nc(NC(=O)C4CC4)cc3c2)C1 | EPHB3 | enzyme activity, inhibitor | 1 µM | – | inhibition | 1% |
| C=CC(=O)Nc1cccc(-c2cnc3[nH]cc(C(=O)NC(C)(C)C)c3n2)c1 | EPHB3 | enzyme activity, inhibitor | 0.1 µM | – | inhibition | 1% |
| CCn1cc(C(=O)O)c(=O)c2c(N)c(F)c(NC3CCCCC3)cc21 | EPHB3 | kinase activity | 0.1 µM, added: ATP at Km | – | inhibition | 8.6% |
| Nc1ncc(-c2cc(-c3cnn(CC(F)(F)F)c3)ncc2F)nc1C(=O)NC1CNCC(F)C1 (centres unmarked) | EPHB3 | enzyme activity | 1 µM | relative to: DMSO control | remaining activity | 97.1% |
| Nc1nc(Nc2ccccc2)sc1C(=O)c1ccccc1 | EPHB3 | enzyme activity, inhibitor | 10 µM | – | remaining activity | 78% |
| Cc1cccc(O[C@H]2CCC[C@@H](C(C)CNCc3ccncc3)C2)c1 (relative stereo) | EPHB3 | cell-free assay | 1 µM | – | inhibition | -3% |

A few entries again:
| SMILES | target | test | conditions | how to read | endpoint | value |
| --- | --- | --- | --- | --- | --- | --- |
| Cc1cccc(-c2ccc3nc(NC(=O)C4CCOCC4)nn3c2)c1 | EPHB3 | enzyme activity, Dundee kinase panel | 10 µM | – | remaining activity | 78% |
| Nc1ncc(-c2cc(-c3cnn(CC(F)(F)F)c3)ncc2F)nc1C(=O)NC1CNCC(F)C1 (centres unmarked) | EPHB3 | enzyme activity | 1 µM | relative to: DMSO control | remaining activity | 97.1% |
| CN1CC[C@@H](COc2cnc(C#N)cc2-c2ccn3nc(NC(=O)C4CC4)cc3c2)C1 | EPHB3 | enzyme activity, inhibitor | 1 µM | – | inhibition | 1% |
